Published values from different studies.
Each line is one published result; not all experiments were run side by side.
Organism: Staphylococcus aureus

| Structure (SMILES) | test | test system | conditions | MIC |
| --- | --- | --- | --- | --- |
| COc1ccc(/C=N/[C@@H]2CCCC[C@@H]2/N=C/c2c(O)ccc3ccc(OC)cc23)c(O)c1 | bacterial growth, broth microdilution | vancomycin-intermediate | – | > 40 µM |
| C#CCOc1ccc(CN[C@@]2(C)C[C@H](O[C@H]3[C@H](Oc4c5cc6cc4Oc4ccc(cc4Cl)[C@@H](O)[C@@H](NC(=O)[C@@H](CC(C)C)NC)C(=O)N[C@@H](CC(N)=O)C(=O)N[C@H]6C(=O)N[C@H]4C(=O)N[C@H](C(=O)N[C@H](C(=O)NCC(N)=O)c6cc(O)cc(O)c6-c6cc4ccc6O)[C@H](O)c4ccc(c(Cl)c4)O5)O[C@H](CO)[C@@H](O)[C@@H]3O)O[C@@H](C)[C@H]2O)cc1OC | broth microdilution | VISA LIM-2, tryptic soy broth | 20 to 24 h, 37 °C, 0.002% polysorbate 80 | 4 mg/L |
| CCCCCCCC[C@H](NC(=O)[C@@H]1CSC([C@@H](N)[C@@H](C)CC)=N1)C(=O)N[C@H](CCC(=O)O)C(=O)N[C@H](C(=O)N[C@H]1CCCCNC(=O)[C@H](CC(N)=O)NC(=O)[C@@H](CC(=O)O)NC(=O)[C@H](Cc2c[nH]cn2)NC(=O)[C@@H](Cc2ccccc2)NC(=O)[C@H]([C@@H](C)CC)NC(=O)[C@@H](CCCN)NC1=O)[C@@H](C)CC | – | ATCC 29213 MSSA | LB with 0.3 mM ZnSO4 | 1 mg/L |
| CC[C@H](C)[C@@H]1NC(=O)[C@@H]([C@@H](C)O)NC(=O)CNC(=O)[C@H](CC(=O)O)NC(=O)CNC(=O)[C@H](CC(=O)O)NC(=O)CNC(=O)[C@H]2CCCCN2C(=O)[C@@H](NC(=O)[C@H](CC(=O)O)NC(=O)/C=C/CCCCCCCCCC(C)C)CNC(=O)[C@@H]2CCCN2C1=O | broth microdilution | BR-VRSA strain 880, Mueller-Hinton broth, Mg2+ 10 mg/L | 16 h, together with: Ca2+ 5 mM | 4 mg/L |
| CCCCCCCCCCCCCC(=O)N[C@H]1C(=O)N[C@@H](CN)C(=O)N[C@@H](CO)C(=O)N[C@@H](Cc2ccc(O)cc2)C(=O)O[C@H]1C | – | SH1000 | together with: phosphatidylglycerol, molar ratio 1 | 4 mg/L |
| Cc1ccc2[nH]c3c(c2c1)CCCC3NCCc1ccc(Br)cc1 (stereo not shown) | broth microdilution | HG001 | – | 4 mg/L |
| CN[C@H](CC(C)C)C(=O)N[C@H]1C(=O)N[C@@H](CC(N)=O)C(=O)N[C@H]2C(=O)N[C@H]3C(=O)N[C@H](C(=O)N[C@H](C(=O)NCc4cn(CCCCC(=O)N[C@H](C(=O)N[C@@H](CCN)C(=O)N[C@H]5CCNC(=O)[C@H]([C@@H](C)O)NC(=O)[C@H](CCN)NC(=O)[C@H](CCN)NC(=O)[C@H](CC(C)C)NC(=O)[C@@H](CC(C)C)NC(=O)[C@H](CCN)NC5=O)[C@@H](C)O)nn4)c4cc(O)cc(O)c4-c4cc3ccc4O)[C@H](O)c3ccc(c(Cl)c3)Oc3cc2cc(c3O[C@@H]2O[C@H](CO)[C@@H](O)[C@H](O)[C@H]2O[C@H]2C[C@](C)(N)[C@H](O)[C@H](C)O2)Oc2ccc(cc2Cl)[C@H]1O | – | MRSA USA300 | – | 0.098 µM |
| CC[C@H](C)[C@H](NC(=O)[C@H](CCCNC(=N)N)NC(=O)[C@@H](NC(=O)[C@@H](NC(=O)[C@H](CCCNC(=N)N)NC(=O)[C@H](CCCCN)NC(=O)[C@H](Cc1ccccc1)NC(=O)[C@H](CCCNC(=N)N)NC(=O)[C@H](CCCCN)NC(=O)[C@@H](NC(=O)[C@@H](N)CCCCN)[C@@H](C)CC)[C@@H](C)CC)C(C)C)C(=O)N[C@@H](CCCCN)C(=O)N[C@@H](Cc1ccccc1)C(=O)N[C@@H](CC(C)C)C(=O)N[C@@H](CCCNC(=N)N)C(=O)N[C@H](C(=O)N[C@H](C(=O)N[C@@H](CCCNC(=N)N)C(=O)N[C@@H](CCCNC(=N)N)C(N)=O)C(C)C)C(C)C | broth microdilution | 25295 | – | 2.5 mg/L |
| CN[C@H](CC(C)C)C(=O)N[C@H]1C(=O)N[C@@H](CC(N)=O)C(=O)N[C@H]2C(=O)N[C@H]3C(=O)N[C@H](C(=O)N[C@H](C(=O)NCc4cn(CC(=O)N[C@H](C(=O)N[C@@H](CCN)C(=O)N[C@H]5CCNC(=O)[C@H]([C@@H](C)O)NC(=O)[C@H](CCN)NC(=O)[C@H](CCN)NC(=O)[C@H](CC(C)C)NC(=O)[C@@H](CC(C)C)NC(=O)[C@H](CCN)NC5=O)[C@@H](C)O)nn4)c4cc(O)cc(O)c4-c4cc3ccc4O)[C@H](O)c3ccc(c(Cl)c3)Oc3cc2cc(c3O[C@@H]2O[C@H](CO)[C@@H](O)[C@H](O)[C@H]2O[C@H]2C[C@](C)(N)[C@H](O)[C@H](C)O2)Oc2ccc(cc2Cl)[C@H]1O | broth microdilution | VISA NRS402, tryptic soy broth | 20 to 24 h, 37 °C, 0.002% polysorbate 80 | 16 mg/L |
| CC(=O)N[C@@H](CC(C)C)C(=O)N[C@H]1CSSC[C@@H](C(=O)N2CCC[C@H]2C(N)=O)NC(=O)[C@H]([C@@H](C)O)NC(=O)[C@H](C(C)C)NC(=O)[C@H]([C@@H](C)O)NC(=O)CNC(=O)[C@H](CC(C)C)NC(=O)[C@H](Cc2ccccc2)NC(=O)[C@H](Cc2ccc(O)cc2)NC(=O)[C@H](CC(C)C)NC(=O)[C@H](CCCCN)NC(=O)[C@H](Cc2ccccc2)NC(=O)[C@H](CCCNC(=N)N)NC(=O)[C@H](CCC(N)=O)NC(=O)[C@H](CC(C)C)NC(=O)[C@H](CCCCN)NC(=O)[C@@H]2CCCN2C(=O)[C@H](CCCCN)NC(=O)[C@H](C(C)C)NC(=O)[C@H](CC(N)=O)NC(=O)[C@H](Cc2ccc(O)cc2)NC(=O)[C@H]([C@@H](C)O)NC1=O | broth dilution | laboratory strain | 24 h | 5 to 10 µM |
| CC(C)C[C@@H]1NC(=O)[C@H](CCCCN)NC(=O)CNC(=O)[C@H]2CCCN2C(=O)[C@H](CCCCN)NC(=O)[C@H](CC(C)C)NC(=O)[C@H](CCCCN)NC(=O)[C@H](CC(C)C)NC(=O)[C@H](CCCCN)NC(=O)C(N)CCC=CCCCC(C(N)=O)NC(=O)[C@H](CCCCN)NC(=O)[C@H](CC(C)C)NC(=O)[C@H](CCCCN)NC1=O (stereo partly shown) | broth microdilution | ATCC 29737, Mueller-Hinton broth | 18 h, 37 °C | 64 µM |
| CC[C@H](C)[C@@H]1NC(=O)[C@H](CO)NC(=O)C(C)(CCCCN)NC(=O)[C@@H]2CSSC[C@@H](C(=O)N[C@@H](Cc3ccc(O)cc3)C(N)=O)NC(=O)[C@H](CCCCN)NC(=O)[C@@H]3CSSC[C@H](NC(=O)[C@H](CCCNC(=N)N)NC(=O)C(C)(CC(C)C)NC(=O)[C@H](CC(=O)O)NC(=O)[C@H](CC(=O)O)NC(=O)[C@H](CCC(=O)O)NC(=O)[C@H](CC(N)=O)NC(=O)[C@H](Cc4c[nH]c5ccccc45)NC(=O)C(C)(CC)NC(=O)CNC(=O)[C@H](CC(N)=O)NC(=O)[C@@H](NC(=O)CNC(=O)[C@H](Cc4ccccc4)NC(=O)CN)CSSC[C@H](NC(=O)[C@H](Cc4ccc(O)cc4)NC(=O)CNC(=O)CNC(=O)[C@H](CCCCN)NC(=O)[C@H](Cc4ccc(O)cc4)NC(=O)[C@H]4CCCN4C(=O)[C@@H]4CCCN4C1=O)C(=O)N[C@@H](C)C(=O)N[C@@H](CCCCN)C(=O)N1CCC[C@@H]1C(=O)NCC(=O)N[C@@H](Cc1ccccc1)C(=O)N[C@@H](C(C)C)C(=O)N3)C(=O)N[C@@H](Cc1c[nH]cn1)C(=O)NC(C)(C)C(=O)N[C@@H](Cc1c[nH]cn1)C(=O)N2 (stereo partly shown) | – | 467, methicillin-resistant mecA, cation-adjusted Mueller Hinton broth | 18 h, 37 °C | 8 µM |
| CC[C@H](C)[C@H](NC(=O)[C@@H](CCCNC(=N)N)NC(=O)[C@H](CCCNC(=N)N)NC(=O)[C@H](CCC(N)=O)NC(=O)[C@H](Cc1c[nH]c2ccccc12)NC(=O)[C@H](CCCNC(=N)N)NC(=O)[C@@H]1CCCN1C(=O)[C@H](CCCNC(=N)N)NC(=O)[C@@H]1CCCN1C(=O)[C@H](CC(C)C)NC(=O)[C@H](Cc1ccc(O)cc1)NC(=O)[C@@H]1CCCN1C(=O)[C@@H]1CCCN1C(=O)[C@H](CCCCN)NC(=O)[C@H](CC(=O)O)NC(=O)[C@@H](N)C(C)C)C(=O)N[C@@H](Cc1ccc(O)cc1)C(=O)N[C@@H](CC(N)=O)C(=O)N[C@H](CCCNC(=N)N)C(N)=O | broth microdilution | DSM 6247 | 18 h, 37 °C, 25% MHB2 | 64 mg/L |

A few entries again:
| Structure (SMILES) | test | test system | conditions | MIC |
| --- | --- | --- | --- | --- |
| CC(=O)N[C@@H](CC(C)C)C(=O)N[C@H]1CSSC[C@@H](C(=O)N2CCC[C@H]2C(N)=O)NC(=O)[C@H]([C@@H](C)O)NC(=O)[C@H](C(C)C)NC(=O)[C@H]([C@@H](C)O)NC(=O)CNC(=O)[C@H](CC(C)C)NC(=O)[C@H](Cc2ccccc2)NC(=O)[C@H](Cc2ccc(O)cc2)NC(=O)[C@H](CC(C)C)NC(=O)[C@H](CCCCN)NC(=O)[C@H](Cc2ccccc2)NC(=O)[C@H](CCCNC(=N)N)NC(=O)[C@H](CCC(N)=O)NC(=O)[C@H](CC(C)C)NC(=O)[C@H](CCCCN)NC(=O)[C@@H]2CCCN2C(=O)[C@H](CCCCN)NC(=O)[C@H](C(C)C)NC(=O)[C@H](CC(N)=O)NC(=O)[C@H](Cc2ccc(O)cc2)NC(=O)[C@H]([C@@H](C)O)NC1=O | broth dilution | laboratory strain | 24 h | 5 to 10 µM |
| CC(C)C[C@@H]1NC(=O)[C@H](CCCCN)NC(=O)CNC(=O)[C@H]2CCCN2C(=O)[C@H](CCCCN)NC(=O)[C@H](CC(C)C)NC(=O)[C@H](CCCCN)NC(=O)[C@H](CC(C)C)NC(=O)[C@H](CCCCN)NC(=O)C(N)CCC=CCCCC(C(N)=O)NC(=O)[C@H](CCCCN)NC(=O)[C@H](CC(C)C)NC(=O)[C@H](CCCCN)NC1=O (stereo partly shown) | broth microdilution | ATCC 29737, Mueller-Hinton broth | 18 h, 37 °C | 64 µM |
